{"data": "Experimental data pooled from the literature", "cell line": "MDA-MB-435", "note": "Protocols differ between the studies behind these lines."}
{"SMILES": "CN(C)CCN1CCN(c2ccc3nc(-c4ccc5nc(-c6ccc(C(F)(F)F)cc6)[nH]c5c4)[nH]c3c2)CC1", "assay": "SRB", "setting": "10 µM, 48 h", "endpoint": "growth percent", "value": "40.9%"}
{"SMILES": "O=C1C=CC2(Oc3cccc4cccc(c34)O2)C2=C1C(O)CCC2O (centres unmarked)", "assay": "cell growth or viability, resazurin", "setting": "72 h", "endpoint": "IC50", "value": "3 µM"}
{"SMILES": "Cc1ccc([N+](=O)[O-])cc1S(=O)(=O)N(C)/N=C/c1cnc2ccc(Br)cn12", "assay": "cell growth or viability", "endpoint": "IC50", "value": "> 10 µM"}
{"SMILES": "O=C(Nc1nnc2c1c(-c1ccc(Cl)cc1)nc1sc(=Cc3ccco3)c(=O)n12)c1ccccc1 (mixture of isomers)", "assay": "SRB", "setting": "10 µM, NCI60 single-dose screen", "how to read": "reference: untreated", "endpoint": "cell growth", "value": "56.4%"}
{"SMILES": "COC1CC(=O)C2C(O)C=CC(O)C2C12Oc1cccc3cccc(c13)O2 (centres unmarked)", "assay": "cell growth or viability, resazurin", "setting": "72 h", "endpoint": "IC50", "value": "23.3 µM"}
{"SMILES": "C1=[N+]2CCCC[N+]3=Cc4ccc5[n]4[Au-]23[n]2c1ccc2-c1nc2ccccc2nc1-5.F[P-](F)(F)(F)(F)F", "assay": "NCI60 five-dose screen", "endpoint": "TGI", "value": "4 -log M"}
{"SMILES": "CCOc1cncc(-c2ccc(NC(=O)C3(c4ccnc(NS(=O)(=O)C5CC5)n4)CCOCC3)nc2)n1", "assay": "cell growth or viability, ATP luminescence", "setting": "72 h", "endpoint": "IC50", "value": "0.238 µM"}
{"SMILES": "CCN(C(=O)c1cc(F)ccc1Oc1nncnc1N1CCC2(C1)CN([C@H](CCCN(C)CCOC)C(C)C)C2)C(C)C", "assay": "cell growth or viability", "setting": "7 days", "endpoint": "GI50", "value": "> 10 µM"}
{"note": "Excerpt of the above:"}
{"SMILES": "Cc1ccc([N+](=O)[O-])cc1S(=O)(=O)N(C)/N=C/c1cnc2ccc(Br)cn12", "assay": "cell growth or viability", "endpoint": "IC50", "value": "> 10 µM"}
